Published values collected from several papers.
Each line is one published result; not all experiments were run side by side. ± gives the spread as reported.
Target: Cytochrome P450 1A2 (CYP1A2, Homo sapiens, UniProt P05177)
Chain of UniProt P05177 (whole entry, looked up): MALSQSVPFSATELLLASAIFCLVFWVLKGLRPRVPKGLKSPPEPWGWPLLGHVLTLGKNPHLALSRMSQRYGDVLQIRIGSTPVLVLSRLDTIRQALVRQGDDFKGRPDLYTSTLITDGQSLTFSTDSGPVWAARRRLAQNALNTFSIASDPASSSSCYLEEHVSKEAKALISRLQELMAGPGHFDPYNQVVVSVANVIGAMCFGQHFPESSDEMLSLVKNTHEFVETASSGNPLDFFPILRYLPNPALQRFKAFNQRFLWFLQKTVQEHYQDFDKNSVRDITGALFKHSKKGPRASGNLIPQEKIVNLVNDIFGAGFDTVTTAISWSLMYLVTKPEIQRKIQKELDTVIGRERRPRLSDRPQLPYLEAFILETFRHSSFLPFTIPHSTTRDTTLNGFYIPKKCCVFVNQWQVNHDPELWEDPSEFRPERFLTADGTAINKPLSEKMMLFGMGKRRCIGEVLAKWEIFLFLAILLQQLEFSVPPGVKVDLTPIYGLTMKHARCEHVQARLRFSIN

| Compound | assay | test system | conditions | how to read | measurement | value |
| --- | --- | --- | --- | --- | --- | --- |
| Cc1cc2c(ccc3c(=O)cc(-c4ccccc4)oc32)o1 | MROD activity | – | together with: methoxyresorufin | – | half-life | 1.65 min |
| C#Cc1ccc2c(C(F)(F)F)cc(=O)oc2c1 | enzyme activity, inhibitor | – | pH 7.6 | – | kinact | 0.00517 s⁻¹ |
| COc1cc(Sc2c(-n3cncn3)[nH]c3ccccc23)cc(OC)c1OC | enzyme activity, inhibitor, fluorescence | – | 1 µM, 15 min, pH 7.4 | – | inhibition | < 50% |
| COc1cc(CCc2cnc3ccn(S(=O)(=O)c4c[nH]cn4)c3n2)cc(OC)c1 | enzyme activity, inhibitor | human, liver microsomes | 10 µM, 20 min, pH 7.4 | – | inhibition | 60% |
| COc1c2ccoc2c(OC)c2oc(=O)ccc12 | – | recombinant microsomes | 8 µM, after 20 h dialysis at 4 °C, together with: methoxyresorufin | reference: uninhibited dialysed control | remaining activity | 39 ± 6% |
| C#Cc1ccc2c(C)cc(=O)oc2c1 | enzyme activity, inhibitor | – | pH 7.6 | – | kinact | 0.0065 s⁻¹ |
| COc1cc(Sc2c(-c3ccncc3)[nH]c3ccccc23)cc(OC)c1OC | enzyme activity, inhibitor, fluorescence | – | 1 µM, 15 min, pH 7.4 | – | inhibition | < 50% |
| CC1=N[C@]2(C(=O)CO)[C@@H](C[C@H]3[C@@H]4C[C@@H](O)C5=CC(=O)C=C[C@]5(C)[C@H]4[C@@H](O)C[C@@]32C)O1 | enzyme activity, inhibitor | human, liver microsomes | with preincubation | – | IC50 | > 50000 nM |
| NC(=S)NN=Cc1ncccc1N | enzyme activity, inhibitor | human, liver microsomes | 6 µM, 15 min, pH 7.4 | – | inhibition | 23% |
| C#Cc1ccc2ccc(=O)oc2c1 | enzyme activity, inhibitor | – | pH 7.6 | – | kinact | 0.0015 s⁻¹ |
| Cc1noc(C)c1Cn1cc(N2C(=O)N(Cc3cccc(O)c3)C(C)(C)C2=O)cn1 | enzyme activity, inhibitor, fluorescence | Sf9 | 10 µM | – | inhibition | 1% |
| C#Cc1ccc2c(C)c(C)c(=O)oc2c1C | enzyme activity, inhibitor | – | pH 7.6 | – | kinact | 0.00733 s⁻¹ |
| CCn1c(C(=O)N(C2CC2)C2CC2)cc2c3c(ncn3C)c(Nc3cc(C)n(C)n3)nc21 | time-dependent inhibitor | human liver microsomes | pH 7.4, together with: phenacetin 450 µM | – | KI | 2900 nM |

A few entries again:
| Compound | assay | test system | conditions | how to read | measurement | value |
| --- | --- | --- | --- | --- | --- | --- |
| CC1=N[C@]2(C(=O)CO)[C@@H](C[C@H]3[C@@H]4C[C@@H](O)C5=CC(=O)C=C[C@]5(C)[C@H]4[C@@H](O)C[C@@]32C)O1 | enzyme activity, inhibitor | human, liver microsomes | with preincubation | – | IC50 | > 50000 nM |
| NC(=S)NN=Cc1ncccc1N | enzyme activity, inhibitor | human, liver microsomes | 6 µM, 15 min, pH 7.4 | – | inhibition | 23% |
